Published values collected from several papers.
Compare with care: the assays were run in different laboratories. Values joined by “and” are separate records of one study, mostly repeats; a detail may differ. ± marks the error that the study gave.

Structure (SMILES)	target or system	assay	test system	conditions	scale	quantity	result
O=C(NS(=O)(=O)c1cccs1)c1cc2ccccc2n1Cc1ccc(Br)c2ccccc12			KM mouse, chronic hyperuricaemia model	dose not given, day 9		body weight	29 g and 29.6 g and 30.2 g and 31.8 g and 25.4 g and 29.4 g
COc1cc2oc(-c3ccc(OC(F)(F)F)cc3)cc(=O)c2c(O)c1O		cyclic voltammetry	DMSO, 0.1 M Bu4NPF6	25 °C		half-wave potential	-1.82 V vs Ag/AgCl
CC(=O)N([O-])CCCCCNC(=O)CCC(=O)N([O-])CCCCCNC(=O)CCC(=O)N([O-])CCCCCN.[89Zr+4]		radio-TLC	aqueous buffer	7 d, pH 7, 37 °C, 89Zr-labelled complex, with: DTPA 1000-fold excess		intact complex	64.1 ± 0.8%
CC(=O)N1CCN(C(=O)c2ccc(Nc3nccc(-c4ccc(Cl)cc4)n3)cc2)CC1			NSG mice	dose not given, day 3		body weight	25 g and 24.6 g and 23.2 g and 24.8 g
C=C[C@]1(C)C[C@@H](OC(=O)CSc2ccc(NC(=O)c3ccco3)cc2)[C@]2(C)[C@H](C)CC[C@]3(CCC(=O)[C@H]32)[C@@H](C)[C@@H]1O			M. gallisepticum-infected chickens, plasma	intramuscular, 5 mg/kg single dose		apparent volume of distribution	8.88 L/kg
C[C@]12C[C@H](c3ccc(S(C)(=O)=O)cc3)C3=C4CCC(=O)C=C4CC[C@H]3[C@@H]1CC[C@@]2(O)C(F)(F)C(F)(F)F		measured: compound (parent)	healthy human volunteers, pooled plasma	oral, 5 mg daily, day 28, 3 h		plasma concentration	0.027 µg/mL
C=C(NC(=O)c1csc(-c2nc3c(cc2O)-c2nc(cs2)C(=O)NC(C(C)O)C(=O)NC(=C(C)OC)c2nc(cs2)C(=O)NC2c4nc(cs4)C(=O)NC(COC(=O)c4c5c6c(cccc6n4O)COC(=O)C(OC4CC(C)(O)C(N(C)C)C(C)O4)C2OC5)c2nc-3cs2)n1)C(N)=O (stereo not shown)			Sprague-Dawley rat, male, plasma	intravenous infusion, 2 mg/kg single dose		AUC(0-last)	0.787 µg·h/mL
CCCCN1C(=O)c2cccc3c(NCCN4CCOCC4)ccc(c23)C1=O			ethyl acetate			emission maximum	512 nm
Cc1cc(-c2ccc(C(=O)[C@@H]3CCCC[C@H]3C(=O)Nc3cnn4c3C(=O)NCC4)cc2)[nH]n1			human, urine	oral, 200 mg, 0-96 h	relative to: dose	cumulative radioactivity recovery	4.96% and 5.59% and 6.58% and 6.28% and 4.92% and 6.77%
CC(CCC(=O)NCC(=O)O)C1CCC2C3CCC4CC(OC5OC(C(=O)O)C(O)C(O)C5O)CCC4(C)C3CC(O)C12C (stereo not shown)			human, plasma	endogenous baseline diurnal	relative to: daily mean concentration	relative peak deviation	143 ± 31%
Cc1nn(-c2nc3c(F)cc(F)cc3s2)c(O)c1C(c1ccc(C(F)(F)F)cc1)c1c(C)nn(-c2nc3c(F)cc(F)cc3s2)c1O			ICR mouse, plasma	oral, 50 mg/kg		Cmax	70.9 µg/mL and 106 µg/mL and 94.9 µg/mL
CN[C@H]1CC[C@H]([C@@]2(C)Oc3c(Cl)cc(C(=O)NCc4c(C)cc(C)[nH]c4=O)c(C)c3O2)CC1		radiochromatography	human, feces	oral, 200 mg	relative to: dose	fecal excretion	2.7% and 0.8% and 1.5% and 1.1%
CCCCN1C(=O)c2cccc3c(NCCCCCCCCN4CCOCC4)ccc(c23)C1=O			DMF			emission maximum	527 nm
O=C(Nc1cnccc1-c1ccc([18F])cc1)c1ccnc(NC(=O)C2CC2)c1		ex vivo gamma counting	FVB/NJ mice, both sexes, brain stem	intravenous, 120 min, with: tariquidar 15 mg/kg iv		mean SUV	0.24
COc1cc(-c2nc3ccccc3s2)cc(CN2CCN(Cc3cc(-c4nc5ccccc5s4)cc(OC)c3O)CCN(C(C)C)CC2)c1O		UV-vis spectrophotometric titration	aqueous NaCl 0.1 M	20 µM, 25 °C, pH 3 to 11		pKa2	7.06
CC(C)(c1cc(Br)c(O)c(Br)c1)c1cc(Br)c(O)c(Br)c1			whole cow milk	20 nM nominal		dose fraction in skim milk	45.5%
Cc1cnc2nc1Nc1cccc(c1)COC/C=C/COCc1cc(ccc1OCCN1CCOCC1)N2			BALB/c mice, rhEPO-induced polycythemia	100 mg/kg, day 2		body weight	19.5 g and 19.6 g and 18.3 g and 18.8 g and 17.9 g and 18.7 g
COc1cccc(OC)c1-c1cc(C(=O)NC2(C(=O)O)C3CC4CC(C3)CC2C4)nn1-c1ccc(C(=O)N(C)CCOCCOCCN(C)C(=O)[C@H](CCCCNC(=O)[C@H](CC(C)C)NC(=O)C2OC2C(=O)O)NC(=O)CN2CCN(CC(=O)[O-])CCN(CC(=O)[O-])CCN(CC(=O)[O-])CC2)cc1C(C)C.[177Lu+3] (mixture of isomers)			mouse HT-29 xenograft	24 h, biodistribution	relative to: tumour over pancreas	tumour-to-pancreas ratio	16.9
CC(C)=CCC1=C([O-])C(=O)c2ccccc2C1=O.CC(C)=CCC1=C([O-])C(=O)c2ccccc2C1=O.O.[Cu+2].c1ccc(-c2ccccn2)nc1		cyclic voltammetry	CH2Cl2, Bu4NPF6	0.1 mM	relative to: Ag/AgCl sat. KOH	Epc1 cathodic peak potential	0.85 V
CC[C@H](C)[C@@H]1NC(=O)[C@H](Cc2ccc(O)cc2)NC(=O)CSC[C@@H](C(N)=O)NC(=O)[C@H](CC(N)=O)NC(=O)[C@H](Cc2c[nH]cn2)NC(=O)[C@H](Cc2ccc(O)cc2)NC(=O)[C@H](CC(=O)O)NC(=O)[C@H](Cc2ccc(F)cc2)NC(=O)[C@H](CC(C)C)NC(=O)[C@H](CCCNC(=N)N)NC1=O		PAMPA		200 µM, 5 h, pH 7.4		membrane retention	< 0.01%
O=C([O-])CN1CCN(CC(=O)[O-])CCN(C(CO)C(O)CO)CCN(CC(=O)[O-])CC1.[Dy+3] (stereo not shown)			cynomolgus monkey, liver	dose not given, day 58, PK group		lanthanide tissue concentration	0.29 ± 0.09 nmol/g
COc1cnc2cccc(N3CCc4c(cc(Cn5ccnc5)cc4-c4cn(C)nc4C(F)(F)F)C3=O)c2c1			male CD-1 mouse, plasma	intravenous, 3 mg/kg		half-life	60 min
CN(C)C(=O)c1cccc(N2Cc3cn(Cc4ccc(Cl)cc4)nc3C2)c1		metabolic stability	rat, liver microsomes			half-life	44 min

Structure (SMILES)	target or system	assay	test system	conditions	scale	quantity	result
COC1C=COC2(C)Oc3c(C)c(O)c4c(c3C2=O)C2=NC3(CCN(CC(C)C)CC3)NC2=C(NC(=O)C(C)=CC=CC(C)C(O)C(C)C(O)C(C)C(OC(=O)Nc2cccnn2)C1C)C4=O (stereo not shown)			CD-1 mouse, female, plasma	intravenous, 5 mg/kg		volume of distribution	0.5 L/kg
COc1cccc(OC)c1-c1cc(C(=O)NC2(C(=O)O)C3CC4CC(C3)CC2C4)nn1-c1ccc(C(=O)N(C)CCOCCN(C)C(=O)[C@H](CCCCNC(=O)[C@H](CC(C)C)NC(=O)C2OC2C(=O)O)NC(=O)CN2CCN(CC(=O)[O-])CCN(CC(=O)[O-])CCN(CC(=O)[O-])CC2)cc1C(C)C.[177Lu+3] (mixture of isomers)			mouse HT-29 xenograft	168 h, biodistribution	relative to: tumour over spleen	tumour-to-spleen ratio	1.72
CC[C@H](C)[C@@H]1NC(=O)[C@H](Cc2ccc(O)cc2)NC(=O)CCCSC[C@@H](C(=O)N(CC(=O)N[C@@H](CC(C)C)C(=O)NCC(N)=O)Cc2ccc(F)cc2)NC(=O)[C@H](CC(N)=O)NC(=O)[C@H](CCC(N)=O)NC1=O			human	intranasal, 300 µg single dose		adverse drug reactions	17%
C/C(N)=N/C(=N\S(=O)(=O)c1ccc(C(F)(F)F)cc1)N1C[C@H](c2ccccc2)C(c2ccc(Cl)cc2)=N1			mouse		relative to: in vivo over in vitro CLint	empirical scaling factor	33
CCCCN1C(=O)c2cccc3c(NCCCN4CCOCC4)ccc(c23)C1=O			dichloromethane			emission maximum	510 nm
COc1cccc(OC)c1-c1cc(C(=O)NC2(C(=O)O)C3CC4CC(C3)CC2C4)nn1-c1ccc(C(=O)N(C)CCCN(C)C(=O)[C@H](CCCCNC(=O)[C@H](CC(C)C)NC(=O)C2OC2C(=O)O)NC(=O)CN2CCN(CC(=O)[O-])CCN(CC(=O)[O-])CCN(CC(=O)[O-])CC2)cc1C(C)C.[177Lu+3] (mixture of isomers)			mouse HT-29 xenograft	24 h, biodistribution	relative to: tumour over spleen	tumour-to-spleen ratio	6.07
O=C1C2CC3CC1CC(C(=O)N1CCN(c4ccc([N+](=O)[O-])c5ncccc45)CC1)(C3)C2			male ICR mouse, plasma	intravenous, 1 mg/kg		MRT	6 min
Nc1ncc(-c2cc(-c3cnn(CC(F)(F)F)c3)ncc2F)nc1C(=O)NC1CNCC(F)C1 (stereo not shown)	TAOK2	KINOMEscan		1 µM	relative to: DMSO control	remaining binding	85%
CCCCN1C(=O)c2cccc3c(NCCCCN4CCOCC4)ccc(c23)C1=O			dioxane			emission maximum	504 nm
CC(C)CCCC(C)C1CCC2C3CC=C4CC(OC(=O)CCC(=O)NCCCOCCOCCOCCCNC(=O)c5ccc(C(=O)O)c(-c6c7ccc(=O)cc-7oc7cc(O)ccc67)c5)CCC4(C)C3CCC12C (stereo not shown)		fluorescence correlation spectroscopy	water	36 °C		diffusion coefficient	423 ± 81 µm²/s
COC1CN([C@H]2CC[C@H]([C@@]3(C)Oc4c(Cl)cc(C(=O)NCc5c(SC)cc(C)[nH]c5=O)c(C)c4O3)CC2)C1		RNA-seq, measured: ARNT2 mouse homolog	mouse, HT-1376 xenograft, whole blood	dose not given	relative to: vehicle	log2 fold change	2.85
CCCCN1C(=O)c2cccc3c(NCCCCCN4CCOCC4)ccc(c23)C1=O			water	pH 6.0		emission maximum	553 nm
C=CC(=O)Nc1cc(Nc2nccc(-c3c[nH]c4ccccc34)n2)c(OC)cc1N(C)CCN(C)C		storage stability	human dried blood spots	24 h, on ice, low QC level		recovery	73.3%
O=C(c1cccc(N2Cc3cn(Cc4ccc(F)cc4)nc3C2)c1)N1CCNCC1		metabolic stability	rat, liver microsomes			half-life	13 min
CC(C)(O)c1ncc([S@](N)(=O)=NC(=O)Nc2c3c(cc4c2CCC4)CCC3)s1		measured: immune system disorders	healthy human	oral, dose not given, all active doses pooled		subjects with TEAEs	2%
COc1ccnc(C(=O)N[C@H]2COC(=O)[C@H](Cc3ccccc3)[C@@H](OC(=O)C(C)C)[C@H](C)OC2=O)c1O		soil adsorption	clay loam soil	pH 7.2, organic carbon 4.4 %		Freundlich coefficient KF	79.5 mL/g
C=CC(=O)N1CCCC(n2c(=O)c3ncccc3n(Cc3ccc(Oc4ccccc4)cc3)c2=O)C1 (stereo not shown)			male BALB/c mouse, plasma	intraperitoneal, 200 mg/kg, 6 h		concentration	0.15 µg/mL
CCCCN1C(=O)c2cccc3c(NCCCCCCN4CCOCC4)ccc(c23)C1=O			methanol			emission maximum	538 nm
Cc1ncsc1-c1ccc(C(C)NC(=O)C2CC(O)CN2C(=O)C(NC(=O)CCCCCCCCCCN2CCCC(Nc3ncc(Cl)c(Nc4ccccc4S(=O)(=O)C(C)C)n3)C2)C(C)(C)C)cc1 (stereo not shown)	22Rv1	RNA-seq, measured: ZNF502 mRNA		concentration not given	relative to: DMSO	log2 fold change	-1.89
Cc1nc(N)nc2c1C(=O)N[C@@H](c1ccc(F)cc1-c1cccc(O[11CH3])n1)C2		ex vivo biodistribution	healthy mice, heart	60 min post-injection, baseline, vehicle pre-treatment		tracer uptake	0.9 ± 0.1 %ID
Cc1ccc(OCC(=O)N(Cc2cccs2)c2ccn[nH]2)cc1			pooled dog liver microsomes	10 µM, 20 min	relative to: time 0	remaining compound	47.8%
COC(=O)C(C)n1nc(Cn2cc3cc(OCC[18F])c(Cl)cc3n2)c2ccccc2c1=O (racemic)			rat, plasma	45 min		parent compound	39%
O=C(Nc1cnccc1-c1ccc([18F])nc1)c1ccnc(NC(=O)C2CC2)c1		ex vivo gamma counting	FVB/NJ mice, both sexes, bone	intravenous, 120 min, mean, P-gp inhibitor pretreatment, with: tariquidar 15 mg/kg iv		SUV	0.418
